Experimental data pooled from the literature.
Numbered parts are unrelated; each lists some results of a single study.

Sample 1
Target: RING finger protein unkempt homolog, zinc fingers 1-6, GST-SBP tag (UNK, Homo sapiens, UniProt Q9C0B0, residues 30-357)
Method: RNA Bind-n-Seq
Molecule type: RNA
Medium: in vitro
Tested at: not given
Notes: RNA with constant flanks, ends assumed
Baseline: input RNA pool
Direction: higher = stronger binding
Constant ends, left off below: GGGAGUUCUACAGUCCGACGAUC … CAACAGAGGAUUGAGCAUCA
Residues (chain): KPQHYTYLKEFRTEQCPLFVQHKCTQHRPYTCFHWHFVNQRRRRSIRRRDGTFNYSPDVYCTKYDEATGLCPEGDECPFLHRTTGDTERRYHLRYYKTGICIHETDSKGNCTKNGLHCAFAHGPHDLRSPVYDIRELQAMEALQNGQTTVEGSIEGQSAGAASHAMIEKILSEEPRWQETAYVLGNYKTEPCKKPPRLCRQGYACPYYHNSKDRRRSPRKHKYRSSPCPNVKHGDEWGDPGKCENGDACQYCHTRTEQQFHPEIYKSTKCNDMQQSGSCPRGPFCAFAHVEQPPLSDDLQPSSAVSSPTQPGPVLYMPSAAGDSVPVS
Oligonucleotide	bound/input enrichment
AUGUCAGAUCUCUUCAACAAACUUGUCAUGAGGCGCAAAGGUAUCUCUGGAAAGGGACCCCGCACUGGAACCAGUGAGGGACCUGGAGGAGCCUUCUCUCGAAUGUCAGACUCCAUCCCA	0.0708 ratio
AGGCACUGGGAGGCUGUUUCAGGAAAGUGAGACUCAAGAGGAAGACAGAAAAGGUUGUAACGCCGAGGAAGUGAGACUGGUGAAUUGGUUUGAUUUUUUUCACAUCUAGAUGGCUGUCAU	0.567 ratio
AUGUCUUUAGUUUCAGAAUAACAGUGCCAUUACCAUAUGUUUGUAUGUUGCAGUUGGAUACCGCUGAGACUCCUCCAUCUUGGUUUUCUCUUCACUCAUCCAUUUCUUCAGCUGCAUGAU	1.2 ratio
UAAUAUGUUAGUAAGUUACAUUUUAAAUAAUGCUCAUGUGACAAUACUCCCAAUCAAUGGCUUACCGAAUUUAAAGAUCUGUAUAUUAGAUUUUGGCUUAAAGGCAUGAGAAGUAUAAGA	2.08 ratio
GACCAGACUCCAAAAUGGAAACCAGCCAAUCUAAAAGAUGUUACGGAUGAAGACUUGAACCGUUACUUUAAAUCUCUGGGAAGCAGUGAUUUGAAAUUCUAAAGUUUAUUUUGGAGCAAA	0.13 ratio
UUCCGCCACAUGAGAAACCAUGCUUAUGAGCCGCUCGCCAGCUUCCUGGACUUCAUAACUUACCGCUACAUGAUUGACAACGUGAUCCUGCUAAUCACAGGCACACUGCACCAGCGUUCA	0.14 ratio
AGUAGGAAAAUCACCGUUCUGCAAGUGAACGAGAAGUCCCUCAUCCGGCAGUACACCACCUCCGUGGAGAUGGAGCGGCACCUGAGAAAGGAAAACGGGAAACACAGGAAUGACGUCAUA	0.134 ratio
GAUAUCCAUUUGAAUGAAAUGGCUGGAGACAUCUUGGUUUUUCUGACUGGCCAGUUUGAAACCGAAAAAAGUUGUGAGUUACUUUUUCAGAUGGCAGAGUCUGUUGAUUAUGAUUAUGAU	0.187 ratio
ACGUUUUUAUGGUCCCCUAUGCCUGAACAUUAUGUGGAAGGAUCAACAGUCAAUUGUGUACCCGCAUUCCAAGGAUAUUACCUUCCAAAUGAUGAUGGAGAAUUUUAUCAGUUCUGUUAC	0.163 ratio
GAGCCCUAUGGCUUCCGCUCCUCAAUGCUAUUUGAUACAAUGCAACAUCAUCUGGCCUUGAACCGAGAUUUGACUACAUCUAGUGUGGAGAAAGACAGCGGAGGGAAGACACCCGGAGAC	0.12 ratio
AUUGCUAUGGGAUUUCCUGCAGAAAGACUUGAAGGCGUAUACAGGAACAAUAUUGAUGAUGCCGUAAGGUUUUUGGAUUCAAAGCAUAAAAACCAUUACAAGAUAUACAAUCUUUGUGCU	0.437 ratio

Sample 2
Target: Interferon regulatory factor 5, full length, phosphomimetic (IRF5, Homo sapiens, UniProt Q13568-2, residues 1-514, K96S/S451D/S453D/S456D/S462D)
Method: protein-binding microarray
Molecule type: double-stranded DNA, one strand shown
Medium: in vitro
Tested at: 250 nM
Notes: 60-bp whole probe
With: salmon DNA 0.4 mg/ml
Baseline: random background probes
Direction: higher = stronger binding
Constant ends, left off below: GCCTAGCAC … GTCTTGATTCGCTTGACGCTGCTG
Oligonucleotide	log fluorescence [z-score]
CTGGACCCACTTCCAAATGGGTGCTAG	-0.517
GACGGTTTCCTCCTGCTGACGTGCTAG	0.32
CACTTTCTTTAACTCATTCTGTGCTAG	3.21
GACGATACCAGTATCGAGACGTGCTAG	2.62
TCAGGTCTGTTTCTGATACTGTGCTAG	1.07
TTAGAACTGAATATCGATTAGTGCTAG	4.27
TTAGGTATCGGTCTCGGTAAGTGCTAG	7.5
ATAGGTCTCGGTATCGGTTAGTGCTAG	4.91
CTGTTTTTGCTTTCCTTCTTGTGCTAG	2.43
TTAGGTTTCATTTTCCTTTAGTGCTAG	4.01
CCAGTGCTTGCTCCCCTGCAGTGCTAG	-0.424
TTAGGTAGCCTACTGCTTTAGTGCTAG	-0.444
GACGAACTGGGGTAACGAGACGTGCTA	-0.512
GTCGATTTCGGGTATCGAGACGTGCTA	6.42
TTAGGTATCCTAATCCTTTAGTGCTAG	-0.0415
TTAGGACTGGGTTTCGGTGAGTGCTAG	6.26
TCATATTTGCTTCAGGTACTGTGCTAG	0.665
TTATGACTGGGGTTTCGGTTAGTGCTA	6.79
GACGATTCCAGTTTCGCGACGTGCTAG	1.35
TTTTTTGTATTTTTGATAGAGTGCTAG	1.71
TTTTTTTTGTATTTTTGATAGTGCTAG	1.79
TCAGTTTTCTAAACCATACTGTGCTAG	0.947
GACCATTTCAGTCTCGAGACGTGCTAG	1.16
GACGAAGTGGGGACTGGAGACGTGCTA	-0.811
TTAGATATCAGACTGGAATAGTGCTAG	0.124

Sample 3
Target: RNA binding protein fox-1 homolog 2, RRM domain, GST-SBP tag (RBFOX2, Homo sapiens, UniProt O43251-10, residues 100-194)
Method: RNA Bind-n-Seq
Molecule type: RNA
Medium: in vitro
Tested at: 365 nM
Notes: natural RNA segment, single round, ends assumed
Baseline: no-protein control
Direction: higher = stronger binding
Constant ends, left off below: GGGAGUUCUACAGUCCGACGAUC … UGGAAUUCUCGGGUGCCAA
Residues (chain): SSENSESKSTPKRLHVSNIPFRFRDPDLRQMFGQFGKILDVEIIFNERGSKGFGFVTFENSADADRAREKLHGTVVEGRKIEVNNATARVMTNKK
Oligonucleotide	RBNS enrichment (R)
AGGUAGCCAGGGGGCAUUUGCUGUCCAAAAAAAUGUUAUGAGCAGAAGAGAUUUUUACAGUAACAUAAAAGCAGAAUUCUUAUGUUGAUAUUAACCUGCAAAUGGACUGU	0.493
AGAGCUUGGCGAGUACAAAGGGAGAGGAAGACAUUUGAACUUUAGAACUUUGUUUCAGCGUGACUCUCCCACCCUGCCCCAAGUUGAAUGUUCCCUUCACAUUGAAUCAA	0.868
GGGCUCAGCCCUCUAGAGCGCCUGUGGAGGCAGUUUCCAGGCAGUAAUGGAGUCCCCACCACCGCUUAGGUUCUGCUGGGGUCACACUGCCUUCAGAUUCCUGCCGCCAU	0.415
AUAGUGAAUGAGAAGUGGUAGUCAUUUGUAAGGAUAGCACACAUUGAAUUUGGAAUUUAUUUCUUCCAUGUUUUGAUCAAUUCUCUGUAACUUUUCUUGGCUUAUAAGGU	1.05
CAGGCAGUCAUGGGCCCUGAGGCCCCUCCUGCCUGGCCCUGCUCCCCAGUGGGGAGGUGACUGUGUUUCCCAGAGUGUGAGCCGCUCUCCUCCCCCUAAAAAGCUGACUC	0.314
AGAUAGGGUCCCCCAGGCAGUCCCCAGUGGCGGGACACAGGGGUCCGGCUGUGGAGCUCCCCUGCCAGCCCCUGGAGCUCCAGGAGGGCCUGUUGGUCCCCUGUUCAGAA	0.384
UGUGGCGCUUUAGGGUGCUGGACUGUAUGGCUGAGGGCUGGUUGGGUUCCUCUAUUGGCUCUGCUCAAAUGUUGCAGGAUACAUAGCCCCAAAGAUGGUCUAGGAGCAAU	0.885
AAUAGUAUGGGGUAAGUACCCUACCUCUUAUAAAGGGCAAAAUGGAAAAGAAGUUUUCUUACAAACCAAAGGGCUUUAGGGAGGACGUUAGGGUUAUAGCUGUGGACUGA	0.463
AGACUUUGUAGACUACUAUAAAGACCAUCCUGAGCCAGACCUGCAGUCAACAGCAAGAGCAAGAAGCACAUAGGAACUAUACCUGCAACCAAGCUGGCAUAAGAACCAAG	0.679
ACACACACUUAUGGCACCAGCCUGGACUCCAGAAAAAGGGUGUCCAGGUAUUGUGUGUAUGCAUUUAGUUGUGCACACACAAAUAUGCUCCUAUACUGGCAUUAGGCGUC	0.458
CCUGUCCACAGCCCUAGCUGCCAGCAAUGCUGUCCUCACAGAGGCAUAGUCGCCCCCAGCUGGGUUGUGCUCCACUGUGACGGUGGCCCGGGGGGAGGAUGCCAGCAGCC	0.23
GUAAACUGAGUUUGCUAAAUUGGGUCCCCAGAGGAUACCAUGAGAGUGGGUAGGGCAAAAAGAGCCCUUUCCGCCCUCUACCCAUCUAAUUCUGAUCCUCUACCUGUAGG	0.266

Sample 4
Target: Sal-like protein 4, full length isoform B (SALL4, Homo sapiens, UniProt Q9UJQ4-2, residues 1-616)
Method: universal PBM
Molecule type: double-stranded DNA, one strand shown
Medium: in vitro
Tested at: not given
Notes: 8-mer, flanks averaged, mean of replicates
Direction: higher = stronger binding
Oligonucleotide	E-score
GTCTTCCA	-0.0464
CCCACCGA	-0.28
AACCCCCG	-0.221
GCCGTTTA	0.0295
ACACTATC	0.213
CCCTCTCC	-0.315
ACATCTAC	0.191
ATTGTGGC	0.0362
TCTTTGAA	0.11
AATGCTAA	0.166
AGAATTAG	0.0854
AAAGTACC	0.0694
CCCTATCC	-0.249
CCCTTCAA	-0.0676
CATAGATG	0.0102
CTAAGCCA	-0.2
AACAGCTT	-0.0705
TGTTTCAA	0.265
ATTAAGCG	0.135
GTTAAGTA	0.147
ATTCTGCG	-0.0677
GAGGTAAA	0.0825
ACGGTGTC	-0.232
CACGAGCC	-0.247
ACCGCATG	-0.0935

Sample 5
Target: Prothrombin, mature alpha-thrombin (F2, Homo sapiens, UniProt P00734)
Method: aptamer microarray, sandwich
Molecule type: DNA with 2'F-ANA
Medium: in vitro
Tested at: 200 nM
Notes: whole 15-mer aptamer, many near background
With: Cy3 exosite-II aptamer, 400 nM
Direction: higher = stronger binding
Oligonucleotide: GGTTGGTGTGGTTGG
Modification	mean fluorescence intensity [a.u.]
2'F-ANA at 2 5 6 10 11 12	48.5
2'F-ANA at 1 3 4 6 12 13	278
2'F-ANA at 2 5 9 10 11 12 13 15	63
2'F-ANA at 2 3 4 6 9 10 11 13	196
2'F-ANA at 3 5 7 9 10 11 15	60.8
2'F-ANA at 1 2 3 5 11 13 15	50.5
2'F-ANA at 1 6 7 8 9 10 11 13 14	45.9
2'F-ANA at 1 4 5 6 7 8 10 12	50.2
2'F-ANA at 4 5 7 8 10 15	75.8
2'F-ANA at 1 2 3 4 5 8 9 10 11 13 14	56.2
2'F-ANA at 3 5 7 8 9	165
2'F-ANA at 1 2 3 4 5 8 9 10 13 15	83.2
2'F-ANA at 2 3 6 7 10 13	352
2'F-ANA at 4 7 8 9 10 12 14	74.8
2'F-ANA at 5 7 8 9 12 13 15	113
2'F-ANA at 4 6 11 12 13 15	273
2'F-ANA at 1 3 7 8 9 10	89.3
2'F-ANA at 2 6 8 9 15	424
2'F-ANA at 1 2 4 10 11 12 14 15	58.9
2'F-ANA at 1 2 4 5 7 8 9 11 12	94.3

Repeated from above (sample 2):
Oligonucleotide	log fluorescence [z-score]
TTAGATATCAGACTGGAATAGTGCTAG	0.124
TTTTTTTTGTATTTTTGATAGTGCTAG	1.79
CTGGACCCACTTCCAAATGGGTGCTAG	-0.517
TTAGGACTGGGTTTCGGTGAGTGCTAG	6.26
ATAGGTCTCGGTATCGGTTAGTGCTAG	4.91
TTAGGTATCGGTCTCGGTAAGTGCTAG	7.5
GACGATACCAGTATCGAGACGTGCTAG	2.62
TCAGGTCTGTTTCTGATACTGTGCTAG	1.07
TTATGACTGGGGTTTCGGTTAGTGCTA	6.79
GTCGATTTCGGGTATCGAGACGTGCTA	6.42
CTGTTTTTGCTTTCCTTCTTGTGCTAG	2.43
